Experimental data collected from several papers.
± gives the spread as reported.

| SMILES | test | system | conditions | AUC(0-inf) |
| --- | --- | --- | --- | --- |
| COc1cccc(N2CCN(C3=Nc4c(F)cccc4[C@H](CC(=O)O)N3c3cc(C(F)(F)F)ccc3OC)CC2)c1 | UHPLC-MS/MS | healthy women, plasma | intravenous infusion, 240 mg single dose, 30 min infusion, HPβCD formulation | 32500 ± 9270 ng·h/mL |
| CC(C)=CCC[C@](C)(O[C@@H]1O[C@H](CO)[C@@H](O)[C@H](O)[C@H]1O)[C@H]1CC[C@]2(C)[C@@H]1[C@H](O)C[C@@H]1[C@@]3(C)CC[C@H](O[C@@H]4O[C@H](CO)[C@@H](O)[C@H](O)[C@H]4O)C(C)(C)[C@@H]3CC[C@]12C | LC-MS/MS | healthy volunteers, serum | oral, 3 g fermented red ginseng | 30.2 ± 41.9 ng·h/mL |
| CC(C)(Sc1ccncc1-c1ccc(C#N)c2ccccc12)C(=O)O |  | healthy Japanese male subjects, plasma | oral, 2.5 mg single dose, day 6, fed, geometric mean | 39.2 ng·h/mL |
| Cc1nc(-c2ccc(OCC(C)C)c(C#N)c2)sc1C(=O)O |  | healthy Chinese adult volunteers, plasma | oral, 80 mg single dose, fed | 14100 ± 4010 ng·h/mL |
| NC(=O)c1cnc2[nH]ccc2c1N[C@@H]1[C@@H]2CC3C[C@H]1C[C@@](O)(C3)C2 |  | healthy Japanese men, plasma | oral, 60 mg, single dose fasted | 783 ng·h/mL |
| CC(C)=CCC[C@](C)(O[C@@H]1O[C@H](CO)[C@@H](O)[C@H](O)[C@H]1O)[C@H]1CC[C@]2(C)[C@@H]1[C@H](O)C[C@@H]1[C@@]3(C)CC[C@H](O[C@@H]4O[C@H](CO)[C@@H](O)[C@H](O)[C@H]4O[C@@H]4O[C@H](CO)[C@@H](O)[C@H](O)[C@H]4O)C(C)(C)[C@@H]3CC[C@]12C | LC-MS/MS | healthy volunteers, serum | oral, 3 g fermented red ginseng | 188 ± 95.9 ng·h/mL |
| CN1C(=O)[C@@H](NC(=O)c2nnc(Cc3ccccc3)[nH]2)COc2ccccc21 |  | healthy men, plasma | oral, 20 mg once daily, day 14, geometric mean | 1150 ng·h/mL |
| COc1cc(OC)c(/C=C/S(=O)(=O)Cc2ccc(OC)c(NCC(=O)O)c2)c(OC)c1 |  | cancer patients, phase I, plasma | oral, 140 mg twice daily, day 21 cycle 1 | 4590 ± 4850 ng·h/mL |
| COc1ccc2c3c1O[C@H]1C[C@@H](OC(=O)c4ccccc4)C=C[C@@]31CCN(C)C2 |  | healthy elderly men, plasma | intranasal, 44 mg, single dose | 112 ng·h/mL |
| O=C(NC[C@H](O)CO)c1ccncc1Nc1ccc(I)cc1F |  | patients, plasma | oral, 60 mg single dose, day 1, median, added: FOLFIRI | 1430 ng·h/mL |
| CCOc1ccc(Cc2cc([C@@H]3S[C@H](CO)[C@@H](O)[C@H](O)[C@H]3O)c(OC)cc2C)cc1 |  | Japanese type 2 diabetes patients, plasma | oral, 5 mg single dose, eGFR 30-44 mL/min/1.73 m^2 | 2060 ± 414 ng·h/mL |
| CNC(=O)c1ccc(-c2cnc3ncc(Cc4ccc5ncccc5c4)n3n2)cc1F |  | severe hepatic impairment | oral, 200 mg, mean | 8530 ng·h/mL |

Excerpt of the above:
| SMILES | test | system | conditions | AUC(0-inf) |
| --- | --- | --- | --- | --- |
| CC(C)=CCC[C@](C)(O[C@@H]1O[C@H](CO)[C@@H](O)[C@H](O)[C@H]1O)[C@H]1CC[C@]2(C)[C@@H]1[C@H](O)C[C@@H]1[C@@]3(C)CC[C@H](O[C@@H]4O[C@H](CO)[C@@H](O)[C@H](O)[C@H]4O)C(C)(C)[C@@H]3CC[C@]12C | LC-MS/MS | healthy volunteers, serum | oral, 3 g fermented red ginseng | 30.2 ± 41.9 ng·h/mL |
| CC(C)(Sc1ccncc1-c1ccc(C#N)c2ccccc12)C(=O)O |  | healthy Japanese male subjects, plasma | oral, 2.5 mg single dose, day 6, fed, geometric mean | 39.2 ng·h/mL |
